Measured values collected from several papers.
“And” joins repeats or separate records; there may be more than shown. ± gives the spread as reported.
Thymocyte selection-associated high mobility group box protein TOX with KAT7: Thymocyte selection-associated high mobility group box protein TOX, with KAT7 (Homo sapiens, UniProt O94900)
EHMT2: Histone-lysine N-methyltransferase EHMT2 (EHMT2, Homo sapiens, UniProt Q96KQ7)
Sequence of UniProt Q96KQ7 (whole entry, looked up): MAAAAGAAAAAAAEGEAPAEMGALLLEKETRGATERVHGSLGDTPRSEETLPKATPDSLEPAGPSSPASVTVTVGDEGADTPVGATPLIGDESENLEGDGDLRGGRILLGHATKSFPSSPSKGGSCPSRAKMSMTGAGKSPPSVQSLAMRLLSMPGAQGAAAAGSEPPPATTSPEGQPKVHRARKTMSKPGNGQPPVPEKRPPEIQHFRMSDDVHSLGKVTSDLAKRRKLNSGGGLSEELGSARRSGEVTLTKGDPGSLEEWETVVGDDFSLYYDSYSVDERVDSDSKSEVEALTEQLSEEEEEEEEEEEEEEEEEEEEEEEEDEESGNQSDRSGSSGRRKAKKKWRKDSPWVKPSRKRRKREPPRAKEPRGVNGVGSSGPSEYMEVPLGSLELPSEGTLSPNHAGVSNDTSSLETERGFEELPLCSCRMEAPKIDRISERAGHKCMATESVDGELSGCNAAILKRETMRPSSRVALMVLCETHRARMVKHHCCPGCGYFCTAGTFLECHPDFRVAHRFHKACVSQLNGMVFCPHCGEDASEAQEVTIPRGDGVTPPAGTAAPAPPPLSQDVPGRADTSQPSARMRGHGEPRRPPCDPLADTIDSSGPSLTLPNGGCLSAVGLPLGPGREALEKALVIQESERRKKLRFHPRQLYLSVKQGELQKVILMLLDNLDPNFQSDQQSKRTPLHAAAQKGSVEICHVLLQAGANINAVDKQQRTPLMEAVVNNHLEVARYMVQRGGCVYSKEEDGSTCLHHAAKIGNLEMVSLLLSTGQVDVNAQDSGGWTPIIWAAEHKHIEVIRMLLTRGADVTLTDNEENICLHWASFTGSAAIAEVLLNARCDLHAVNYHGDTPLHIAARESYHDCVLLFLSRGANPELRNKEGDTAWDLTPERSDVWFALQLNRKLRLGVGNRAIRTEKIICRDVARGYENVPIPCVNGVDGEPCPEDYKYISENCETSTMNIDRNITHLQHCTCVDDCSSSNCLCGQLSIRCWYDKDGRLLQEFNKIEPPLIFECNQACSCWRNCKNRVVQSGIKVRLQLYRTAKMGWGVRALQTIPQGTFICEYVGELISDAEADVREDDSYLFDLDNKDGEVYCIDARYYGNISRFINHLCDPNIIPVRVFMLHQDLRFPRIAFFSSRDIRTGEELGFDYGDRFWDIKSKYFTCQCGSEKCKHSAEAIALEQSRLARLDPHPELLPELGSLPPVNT
ABCB1: ATP-dependent translocase ABCB1 (ABCB1, Homo sapiens, UniProt P08183)
Sequence of UniProt P08183 (whole entry, looked up): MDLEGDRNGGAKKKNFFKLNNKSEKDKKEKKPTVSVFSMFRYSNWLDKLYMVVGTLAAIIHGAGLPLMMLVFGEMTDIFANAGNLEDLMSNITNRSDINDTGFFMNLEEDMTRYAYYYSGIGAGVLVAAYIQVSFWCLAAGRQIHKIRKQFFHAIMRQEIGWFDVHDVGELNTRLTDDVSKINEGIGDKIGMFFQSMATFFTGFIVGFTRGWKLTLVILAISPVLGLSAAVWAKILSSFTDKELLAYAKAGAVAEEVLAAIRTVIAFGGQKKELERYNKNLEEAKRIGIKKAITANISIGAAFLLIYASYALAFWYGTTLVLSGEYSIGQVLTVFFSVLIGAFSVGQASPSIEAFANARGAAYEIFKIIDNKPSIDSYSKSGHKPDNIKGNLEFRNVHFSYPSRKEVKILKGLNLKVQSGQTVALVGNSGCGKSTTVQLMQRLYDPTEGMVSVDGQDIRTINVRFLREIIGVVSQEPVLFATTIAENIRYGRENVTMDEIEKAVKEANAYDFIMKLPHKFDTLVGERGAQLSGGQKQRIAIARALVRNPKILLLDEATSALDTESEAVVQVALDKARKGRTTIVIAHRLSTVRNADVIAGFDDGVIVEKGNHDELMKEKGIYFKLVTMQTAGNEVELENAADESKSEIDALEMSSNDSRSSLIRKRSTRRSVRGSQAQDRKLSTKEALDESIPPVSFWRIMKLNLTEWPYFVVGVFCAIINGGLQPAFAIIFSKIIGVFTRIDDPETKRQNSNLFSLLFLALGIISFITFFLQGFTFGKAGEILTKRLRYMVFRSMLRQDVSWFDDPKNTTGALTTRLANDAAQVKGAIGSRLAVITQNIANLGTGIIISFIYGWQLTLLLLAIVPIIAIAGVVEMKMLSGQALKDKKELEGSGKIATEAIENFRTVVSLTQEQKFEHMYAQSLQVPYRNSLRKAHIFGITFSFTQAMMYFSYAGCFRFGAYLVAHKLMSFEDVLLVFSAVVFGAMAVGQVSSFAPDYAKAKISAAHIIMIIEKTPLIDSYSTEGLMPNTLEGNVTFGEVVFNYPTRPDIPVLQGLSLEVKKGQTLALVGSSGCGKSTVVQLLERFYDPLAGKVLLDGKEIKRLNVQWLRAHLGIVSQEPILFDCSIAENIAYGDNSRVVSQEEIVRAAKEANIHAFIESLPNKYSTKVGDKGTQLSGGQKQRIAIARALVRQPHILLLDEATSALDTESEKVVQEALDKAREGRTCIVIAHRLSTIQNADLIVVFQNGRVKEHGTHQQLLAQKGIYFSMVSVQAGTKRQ
Methionyl-tRNA synthetase, putative: Methionyl-tRNA synthetase, putative (Trypanosoma brucei brucei, UniProt Q38C91)
Proteasome subunit beta type-9: Proteasome subunit beta type-9 (Homo sapiens, UniProt P28065)
Sequence of UniProt P28065 (whole entry, looked up): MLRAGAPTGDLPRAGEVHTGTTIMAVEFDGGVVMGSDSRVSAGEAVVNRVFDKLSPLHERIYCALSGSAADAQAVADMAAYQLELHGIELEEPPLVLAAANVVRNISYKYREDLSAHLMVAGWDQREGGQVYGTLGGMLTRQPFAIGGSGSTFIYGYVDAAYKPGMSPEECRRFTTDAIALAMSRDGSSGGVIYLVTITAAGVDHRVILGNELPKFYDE
CA9: Carbonic anhydrase 9 (CA9, Homo sapiens, UniProt Q16790)
Integrin alpha-5/beta-1: Integrin alpha-5/beta-1 (Homo sapiens, UniProt P05556+P08648)
Sequence of UniProt P05556 (whole entry, looked up): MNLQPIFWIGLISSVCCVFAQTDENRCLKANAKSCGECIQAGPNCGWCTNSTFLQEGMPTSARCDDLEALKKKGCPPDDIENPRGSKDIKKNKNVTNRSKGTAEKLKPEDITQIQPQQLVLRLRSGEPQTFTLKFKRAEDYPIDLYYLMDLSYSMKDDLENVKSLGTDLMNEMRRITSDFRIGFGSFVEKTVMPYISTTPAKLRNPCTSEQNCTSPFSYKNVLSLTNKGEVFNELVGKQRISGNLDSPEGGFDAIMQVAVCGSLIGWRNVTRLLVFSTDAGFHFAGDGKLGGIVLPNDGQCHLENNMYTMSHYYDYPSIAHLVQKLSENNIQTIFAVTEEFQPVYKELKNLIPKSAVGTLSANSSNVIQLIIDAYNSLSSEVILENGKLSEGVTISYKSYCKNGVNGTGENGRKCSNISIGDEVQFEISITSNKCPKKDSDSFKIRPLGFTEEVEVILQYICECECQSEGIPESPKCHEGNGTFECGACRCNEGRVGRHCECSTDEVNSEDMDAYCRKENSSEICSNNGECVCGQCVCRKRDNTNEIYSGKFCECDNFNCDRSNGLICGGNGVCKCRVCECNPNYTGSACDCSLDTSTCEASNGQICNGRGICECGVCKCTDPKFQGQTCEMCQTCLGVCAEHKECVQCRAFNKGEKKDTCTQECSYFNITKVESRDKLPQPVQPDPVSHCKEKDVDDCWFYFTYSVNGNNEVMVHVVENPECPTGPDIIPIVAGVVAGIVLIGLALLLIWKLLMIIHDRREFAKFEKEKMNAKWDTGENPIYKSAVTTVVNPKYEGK
CD274 with PD-1: Programmed cell death 1 ligand 1, with PD-1 (CD274, Homo sapiens, UniProt Q9NZQ7)
Sequence of UniProt Q9NZQ7 (whole entry, looked up): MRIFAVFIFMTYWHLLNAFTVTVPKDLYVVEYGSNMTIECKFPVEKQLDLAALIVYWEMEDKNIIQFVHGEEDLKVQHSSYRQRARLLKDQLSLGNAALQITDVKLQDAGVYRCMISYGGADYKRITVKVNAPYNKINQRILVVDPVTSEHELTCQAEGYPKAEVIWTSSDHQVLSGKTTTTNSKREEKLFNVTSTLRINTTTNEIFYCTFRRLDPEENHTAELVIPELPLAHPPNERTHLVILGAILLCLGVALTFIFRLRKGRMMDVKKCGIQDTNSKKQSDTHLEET
CELF1 del215-384: CUGBP Elav-like family member 1 (CELF1, Homo sapiens, UniProt Q92879, del215-384)
Sequence of UniProt Q92879 (whole entry, unmodified, looked up): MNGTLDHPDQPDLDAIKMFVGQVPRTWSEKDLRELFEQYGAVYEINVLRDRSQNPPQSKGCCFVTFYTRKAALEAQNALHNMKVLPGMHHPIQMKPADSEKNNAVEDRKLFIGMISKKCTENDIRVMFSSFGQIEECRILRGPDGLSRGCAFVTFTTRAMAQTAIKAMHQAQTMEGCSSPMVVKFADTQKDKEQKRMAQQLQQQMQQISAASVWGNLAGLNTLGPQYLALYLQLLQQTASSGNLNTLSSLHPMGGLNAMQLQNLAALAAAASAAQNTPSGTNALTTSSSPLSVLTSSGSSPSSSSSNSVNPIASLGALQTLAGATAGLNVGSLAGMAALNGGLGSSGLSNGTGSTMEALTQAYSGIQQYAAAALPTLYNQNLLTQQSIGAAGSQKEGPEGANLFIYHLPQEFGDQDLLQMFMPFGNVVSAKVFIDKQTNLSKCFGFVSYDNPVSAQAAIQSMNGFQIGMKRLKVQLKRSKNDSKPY
SIRT1: NAD-dependent protein deacetylase sirtuin-1 (SIRT1, Homo sapiens, UniProt Q96EB6)
Sequence of UniProt Q96EB6 (whole entry, looked up): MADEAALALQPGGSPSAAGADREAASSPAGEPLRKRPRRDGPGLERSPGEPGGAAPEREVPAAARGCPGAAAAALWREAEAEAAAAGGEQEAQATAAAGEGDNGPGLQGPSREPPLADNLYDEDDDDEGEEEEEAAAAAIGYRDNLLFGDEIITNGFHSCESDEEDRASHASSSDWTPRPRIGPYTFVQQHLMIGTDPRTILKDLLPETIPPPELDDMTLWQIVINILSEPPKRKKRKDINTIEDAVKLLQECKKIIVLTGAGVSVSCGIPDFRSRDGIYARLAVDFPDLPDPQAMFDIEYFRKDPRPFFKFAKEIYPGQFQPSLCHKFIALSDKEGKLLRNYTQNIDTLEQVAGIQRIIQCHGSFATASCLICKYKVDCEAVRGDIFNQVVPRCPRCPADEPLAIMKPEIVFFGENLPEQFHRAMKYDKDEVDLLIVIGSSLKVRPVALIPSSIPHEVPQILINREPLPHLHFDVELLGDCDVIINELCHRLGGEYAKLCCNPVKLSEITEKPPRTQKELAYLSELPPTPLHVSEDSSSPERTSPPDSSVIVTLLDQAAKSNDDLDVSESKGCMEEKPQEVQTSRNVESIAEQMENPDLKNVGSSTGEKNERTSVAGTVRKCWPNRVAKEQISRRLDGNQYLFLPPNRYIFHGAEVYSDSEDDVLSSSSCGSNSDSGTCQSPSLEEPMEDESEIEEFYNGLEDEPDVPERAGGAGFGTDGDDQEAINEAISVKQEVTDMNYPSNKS

Compound	target	assay	test system	conditions	scale	IC50
COc1ccc2c(c1)Cc1c-2nc(N)c(C#N)c1-c1ccc(CO)o1	Thymocyte selection-associated high mobility group box protein TOX with KAT7	TOX-KAT7 binding, inhibitor, ELISA	–	–	no inhibition at 10 µM	6.7 µM
CC1(C)C(=O)N=C2C1=C(O)C(=O)c1ccccc12	EHMT2	enzyme activity, inhibitor	–	–	–	3.2 µM
CN1CCCC1C(=O)NC(Cc1ccc(-n2cccn2)cc1)B(O)O (stereo not drawn)	20S proteasome beta subunits, part β2 subunit (Plasmodium falciparum, UniProt Q8I261+Q8I6T3)	β2 activity, inhibitor	–	together with: Ac-WLR-AMC	–	> 10 µM
Cc1nn(-c2cccc(N)c2)c(=O)c2cnc(Nc3ccc(N4CCNCC4)cc3)nc12	FLT1 (Homo sapiens, UniProt P17948)	enzyme activity, inhibitor	–	–	–	> 10 µM
CN1CCN(c2ccc(-c3cncc(Cl)c3N3CCC4(CCNC4=O)CC3)cc2)CC1	Cyclin-dependent kinase 19, with cyclin C (CDK19, Homo sapiens, UniProt Q9BWU1)	ligand displacement	–	–	–	0.004 µM
C[C@@H](Nc1c(-c2c(F)cc(C#N)cc2F)c(Cl)nc2ncnn12)C(C)(C)C	ABCB1	inhibitor	–	–	–	> 30 µM
C[C@@H](CNCc1cc(Cl)cc(Cl)c1)CNc1nc2cccnc2[nH]1	Methionyl-tRNA synthetase, putative	enzyme activity, inhibitor	–	–	–	< 0.01 µM
CC(C)C[C@H](NC(=O)[C@H](Cc1ccc(CN)cc1)NC(=O)[C@H](Cc1ccccc1)N=[N+]=[N-])C(=O)N[C@@H](CC1CC2CCC1C2)C(=O)[C@@]1(C)CO1 (stereo in doubt)	Proteasome subunit beta type-9	competitive ABPP	Raji cell lysate	–	–	> 10 µM
CC(=O)N[C@@H](CCCNC(=N)N)C(=O)N[C@H]1CSSC[C@@H](C(N)=O)NC(=O)[C@H](Cc2c[nH]c3ccccc23)NC(=O)[C@H](CCCNC(=N)N)NC(=O)[C@@H](Cc2ccc3ccccc3c2)NC(=O)[C@H](Cc2c[nH]cn2)NC(=O)[C@@H](C)NC1=O	MC3R (Homo sapiens, UniProt P41968)	cAMP, antagonist, split-luciferase cAMP sensor	–	12 min, together with: α-MSH 30 nM (EC90)	–	0.0218 µM
Clc1cc(Cl)cc(CNCCCNc2nc3ncccc3[nH]2)c1	Methionyl-tRNA synthetase, putative	enzyme activity, inhibitor	–	–	–	< 0.01 µM
CCc1noc(CN(C)Cc2cn(-c3ccccc3)nc2-c2ccc(Cl)cc2)n1	CXCR4 (Homo sapiens, UniProt P61073)	β-arrestin recruitment, antagonist	–	–	–	16 µM
C[C@@H](O)[C@H](NC(=O)[C@@H]1CSSC[C@@H](NC(=O)[C@H](Cc2ccccc2)NC(N)=O)C(=O)N[C@@H](Cc2ccc(NC(N)=O)cc2)C(=O)N[C@H](Cc2c[nH]c3ccccc23)C(=O)N[C@@H](CCCCN)C(=O)N[C@@H]([C@@H](C)O)C(=O)N1)C(N)=O	SSTR3 (Homo sapiens, UniProt P32745)	ligand displacement, radioligand	–	–	–	> 1 µM
Cc1c[nH]c2nccc(-c3ccc(C(=O)N[C@@H]4c5c(F)cc(C(F)F)cc5C[C@@H]4O)cn3)c12	PRKX (Homo sapiens, UniProt P51817)	enzyme activity, inhibitor	–	–	–	0.0068 µM
CCCCCCC1CCC/C1=N\NC(N)=S (stereo not drawn)	Scavenger receptor class B member 1 (Mus musculus, UniProt Q61009)	transporter uptake, inhibitor	–	–	–	0.011 µM
NCC1CCN(c2nc(-c3ccncc3)nc3c(C#CCO)cccc23)CC1	LATS1 (Homo sapiens, UniProt O95835)	enzyme activity, inhibitor, radiometric	–	–	–	0.042 µM
NC(N)=NS(=O)(=O)c1ccc(NC(=O)CCC(=O)O)cc1	DPP4 (Homo sapiens, UniProt P27487)	enzyme activity, inhibitor, fluorescence	–	–	–	54.4 µM
C[C@@]1(C(=O)O)[C@@H](O)CC[C@]2(C)c3cc4c(cc3CC[C@@H]12)[nH]c1ccc(S(=O)(=O)n2c3ccccc3c3cc5c(cc32)CC[C@H]2[C@](C)(C(=O)O)[C@@H](O)CC[C@]52C)cc14	CA9	enzyme activity, inhibitor, absorbance	–	pH 7.5	–	0.114 µM
Fc1ccc(Nc2nc(NC3CCCCC3)c3ccccc3n2)cc1F	ADRB2 (Homo sapiens, UniProt P07550, G162A)	β-arrestin2 recruitment, antagonist, BRET	HEK293	mutant G162A, together with: isoprenaline 1 µM	–	0.631 µM
NC(=O)c1ncn(C2OC(COP(=O)(O)O)C(O)C2O)c1N (stereo not drawn)	Fructose-1,6-bisphosphatase 1 (Mus musculus, UniProt Q9QXD6)	enzyme activity, inhibitor	–	–	–	108 µM
CCN(CC)CCCNc1c2c(c(C#N)c3nc4ccccc4n13)CCC2	ERO1-like protein alpha (Homo sapiens, UniProt Q96HE7)	enzyme activity, inhibitor, fluorescence	–	–	–	23.8 µM
N#Cc1c(N)nc2c(c1-c1ccc(O)cc1)Cc1cc(O)ccc1-2	Thymocyte selection-associated high mobility group box protein TOX with KAT7	TOX-KAT7 binding, inhibitor, ELISA	–	–	no inhibition at 10 µM	> 10 µM
CC1CCCN(CCCNC(=O)C2=Cc3sc4c(c3CS2)CCCC4)C1 (stereo not drawn)	Catenin beta-1, with BCL9 HD2 (CTNNB1, Homo sapiens, UniProt P35222)	BCL9 binding, inhibitor, AlphaScreen	–	–	–	9 µM
CC(C)C[C@H](NC(=O)c1ccccc1)C(=O)N[C@@H](CC(C)C)C(=O)N[C@H](/C=C/S(C)(=O)=O)Cc1ccc(CN)cc1	Proteasome subunit beta type-9	competitive ABPP	Raji cell lysate	–	–	> 10 µM

Compound	target	assay	test system	conditions	scale	IC50
CS(=O)(=O)c1ccc(-c2cc(Cl)c(C(=O)N[C@@H](CNC(=O)CNC(=O)c3cccc(NC(=N)N)c3)C(=O)O)c(Cl)c2)cc1	Integrin alpha-5/beta-1	cell adhesion, inhibitor	SW480	together with: fibronectin 0.3 µg/mL	–	0.00398 µM
CCOc1cc(CN2CCC3(CC2)CN(c2ccc(C(=O)O)cc2)C(=O)N3)c(C2CC2)cc1C	SSTR5 (Homo sapiens, UniProt P35346, F264A)	cAMP level, antagonist, GloSensor	AD293	F264A mutant, bandwidth 6.51, together with: CST17 EC80 and forskolin	–	0.00977 µM
O=C(Nc1cccc(N2CCNCC2)c1)c1cc(-c2ccccc2)n(-c2ccccc2)n1	Genome polyprotein, NS2B-NS3 protease (West Nile virus, UniProt P06935)	protease activity, inhibitor	–	isolated protease	–	32 µM
Cc1c(COc2cc(OCc3cccc(C#N)c3)c(CNC(CO)(CO)CO)cc2Cl)cccc1-c1cccc(OCCCCCC(=O)NO)c1	CD274 with PD-1	PD-1/PD-L1 binding, inhibitor, HTRF	–	–	–	0.0125 µM
Cc1cccc(-c2n[nH]c(=S)[nH]2)c1	CELF1 del215-384	CELF1-RNA binding, inhibitor, fluorescence polarization	–	20 nM CELF1, together with: 10 nM RNA	–	0.48 ± 0.14 µM
COc1cccc(NC(=O)Nc2ccccc2O)c1	SRPK3 (Homo sapiens, UniProt Q9UPE1)	enzyme activity, inhibitor, FRET	–	–	–	5.6 µM
CNc1cccc(CCC(=O)NCC(=O)NC[C@H](NC(=O)c2c(Cl)cc(-c3ccccc3)cc2Cl)C(=O)O)n1	Integrin alpha-5/beta-1	cell adhesion, inhibitor	SW480	together with: fibronectin 0.3 µg/mL	–	2 µM
Cc1ccc(S(=O)(=O)N/N=C/c2ccsc2B(O)O)cc1	Prothrombin (F2, Homo sapiens, UniProt P00734)	enzyme activity, inhibitor	–	–	–	> 100 µM
C=CC(=O)N1CC2C(=O)N(CCN(C)C)c3c(c4cc(Cl)c(-c5c(O)cccc5F)nc4n(-c4c(C)ccnc4C(C)C)c3=O)N2CC1C (stereo not drawn)	ABCB1	inhibitor	MDCK-MDR1	–	–	9.31 µM
CC(C)C[C@H](NC(=O)[C@H](Cc1ccc(CN)cc1)NC(=O)[C@H](Cc1ccccc1)N=[N+]=[N-])C(=O)N[C@@H](CC1CCCC2CCCCC21)C(=O)[C@@]1(C)CO1 (stereo partly drawn)	Proteasome subunit beta type-9	competitive ABPP	Raji cell lysate	–	–	> 10 µM
Cn1c(-c2cccs2)n[nH]c1=S	CELF1 del215-384	CELF1-RNA binding, inhibitor, fluorescence polarization	–	20 nM CELF1, together with: 10 nM RNA	–	0.55 ± 0.22 µM
CNC(=S)NCCCC[C@H](NS(=O)(=O)c1ccc(C(=O)NCc2cn(CCCNc3ccc([N+](=O)[O-])c4nonc34)nn2)cc1)C(=O)N[C@@H](CCCNC(=N)N)C(=O)N[C@@H](CC1CCCCC1)C(N)=O	SIRT1	enzyme activity, inhibitor, fluorescence	–	–	–	0.11 µM
N[C@@H](CCC(=O)N[C@@H](CS[Se]Cc1ccc(-c2cccc(C(O)c3ccc(Cl)c(Cl)c3)c2)cc1)C(=O)NCC(=O)O)C(=O)O (stereo partly drawn)	PTPN1 (Homo sapiens, UniProt P18031)	enzyme activity, inhibitor	–	together with: pNPP, GSH 1 mM	–	40.9 µM
CC(C)Oc1ccc(-c2cccc(C(C)N(C)C(=O)c3cc(S(N)(=O)=O)ccc3O)c2)cc1 (stereo not drawn)	CA9	enzyme activity, inhibitor	–	–	–	0.00603 µM
O=C1C(Cl)=C(NCCNCCO)C(=O)c2ccccc21	EHMT2	enzyme activity, inhibitor	–	–	–	1.3 µM
S=c1[nH]nc(-c2cccs2)n1-c1ccccc1	CELF1 del215-384	CELF1-RNA binding, inhibitor, fluorescence polarization	–	20 nM CELF1, together with: 10 nM RNA	–	0.46 ± 0.07 µM
Fc1ccc2nc(NCCCN[C@@H]3CCNc4c(Cl)cc(Cl)cc43)[nH]c2n1	Methionyl-tRNA synthetase, putative	enzyme activity, inhibitor	–	–	–	< 0.01 µM
C=CC(=O)Nc1ccc2nc(NCCCCCN(C)C)nc(NCCCCCCN(C)C)c2c1	SETDB1 (Homo sapiens, UniProt Q15047)	enzyme activity, inhibitor	–	–	–	0.311 µM and 0.575 µM and 0.39 µM
Cc1nc2ccc(Br)cc2c(=O)n1N	Phospholipase A2, membrane associated (Homo sapiens, UniProt P14555)	enzyme activity, inhibitor, colorimetric	–	–	–	22.1 ± 2.23 µM
Cc1c(COc2cc(OCc3cccc(C#N)c3)c(CN3CCCC[C@H]3C(=O)O)cc2Cl)cccc1-c1cccc(OCCCCCC(=O)NO)c1	CD274 with PD-1	PD-1/PD-L1 binding, inhibitor, HTRF	–	–	–	0.0774 µM
Cc1nn(-c2ccc(S(N)(=O)=O)cc2)c(C)c1CCC(=O)Nc1cccc(OCc2cn(C)nn2)c1	CA9	enzyme activity, inhibitor	–	–	–	0.0117 µM
CCCCCCCCCCCCCC(=S)NCCCC[C@H](NS(C)(=O)=O)C(=O)N[C@H](C)C(=O)N[C@@H](CCCNC(=N)N)C(N)=O	SIRT1	enzyme activity, inhibitor, HPLC	–	–	–	7.7 µM
